Assay results collected from several papers.
Compare with care: the assays were run in different laboratories. Several values in a cell are separate wells, animals, samples, runs or records. ± marks the error that the study gave.
APP: Amyloid-beta precursor protein (APP, Homo sapiens, UniProt P05067)
APP amyloid-beta insoluble aggregates: Amyloid-beta precursor protein, amyloid-beta insoluble aggregates (APP, Homo sapiens, UniProt P05067)
APP amyloid-beta fibrils: Amyloid-beta precursor protein, amyloid-beta fibrils (APP, Homo sapiens, UniProt P05067)

CC[C@H](C)[C@H](NC(=O)[C@@H](NC(=O)[C@H](CCCCN)NC(=O)[C@@H](NC(=O)CNC(=O)[C@@H](N)CCCNC(=N)N)[C@@H](C)O)C(C)C)C(=O)N[C@@H](CC(C)C)C(=O)N[C@@H](Cc1c[nH]cn1)C(=O)N[C@@H](CC(C)C)C(N)=O  ThT fluorescence (APP; fibril formation, ThT fluorescence; 10 µM, 42 h, pH 7.4, equimolar to peptide, together with: amyloid-beta 1-42 10 µM; reference: untreated amyloid-beta): 102 ± 29%
Clc1ccc2c(c1)N(CCCN1CCN(CCn3cc(CN4CCCNCCN(Cc5cn(CCN6CCN(CCCN7c8ccccc8Sc8ccc(Cl)cc87)CC6)nn5)CCCNCC4)nn3)CC1)c1ccccc1S2.[Cu+2].[O-][Cl+3]([O-])([O-])[O-].[O-][Cl+3]([O-])([O-])[O-]  lowest significant inhibitory concentration (APP; amyloid fibril formation, inhibitor, thioflavin T; together with: 2.5 µM Aβ42): ≥ 1 µM
O=C1c2sc(-c3ccc(N4CCC(CO)CC4)nc3F)nc2CCN1c1cccnc1  specific binding (APP amyloid-beta insoluble aggregates; radioligand filter binding; AD brain insoluble fraction; 175 nM; higher = more binding): 1210 a.u. and 1500 a.u.
CCCCCCCCCCCCCCCC(=O)OCC(CSC[C@H](N)C(=O)N[C@@H](CO)C(=O)N[C@@H](CCCCN)C(=O)N[C@@H](CCCCN)C(=O)N[C@@H](CCCCN)C(=O)N[C@@H](CCCCN)C(=O)NCCCCCC(=O)N[C@@H](CCCCN)C(=O)N[C@@H](CC(C)C)C(=O)N[C@H](C(=O)N[C@@H](Cc1ccccc1)C(=O)N[C@@H](Cc1ccccc1)C(=O)N[C@@H](Cc1ccc2ccccc2c1)C(=O)O)C(C)C)OC(=O)CCCCCCCCCCCCCCC (stereo partly shown)  fibril diameter (Amyloid-beta precursor protein, fibrillar amyloid-beta (APP, Homo sapiens, UniProt P05067); TEM; 2.0 eq, 3 h, fibril 3, together with: APP 20 µM): 71.5 nm
COc1cc(/C=C/C(=O)C2=C(/C=C/c3ccc(O)c(OC)c3)NC(=S)NC2[c-]2cccc2)ccc1O.[Fe+2].c1cc[cH-]c1 (racemic)  fibril length (Amyloid-beta precursor protein, Aβ1-40 fibrils (APP, Homo sapiens, UniProt P05067); single-molecule localization microscopy; 100 µM, 1 h, room temperature, together with: amyloid beta 20 µM): 0.55 ± 0.29 µm
O=C1c2sc(-c3ccc(N4CCC(F)C4)nc3F)nc2CCN1c1cccnc1 (stereo not shown)  specific binding (APP amyloid-beta insoluble aggregates; radioligand filter binding; AD brain insoluble fraction; 150 nM; higher = more binding): 782 a.u. and 460 a.u.
CC[C@H](C)[C@H](NC(=O)[C@@H](NC(=O)[C@@H](NC(=O)[C@@H](NC(=O)[C@H](CCCCN)NC(=O)[C@H](CCC(=O)O)NC(=O)[C@H](C)N)C(C)C)C(C)C)C(C)C)C(=O)N[C@H](C(=O)N[C@@H](CCCCN)C(N)=O)[C@@H](C)O  aggregation half-time (APP; fibril formation, ThT fluorescence; 1-fold of peptide, pH 7.4, room temperature, together with: amyloid-beta 10 µM; reference: untreated): 104 ± 3%
CCC1CC2C(C)=CC3C(=O)C=CCC3C=CC(C)=CC2C(=O)O1 (stereo not shown)  fibril dissociation (APP amyloid-beta fibrils; thioflavin T, measured: Aβ42 pre-formed fibrils; 5 µM): 6.82%
CC(C)C[C@H](NC(=O)CCS[C@H]1O[C@H](CO)[C@@H](O)[C@H](O)[C@H]1O)C(=O)N1CCC[C@H]1C(=O)N[C@@H](Cc1ccccc1)C(=O)N[C@@H](Cc1ccccc1)C(=O)N[C@@H](CC(=O)O)C(=O)N[C@@H](CC(=O)O)C(=O)N[C@@H](C)C(=O)N[C@@H](Cc1c[nH]cn1)C(=O)N[C@@H](CCCCN)C(N)=O  inhibition (Amyloid-beta precursor protein, fibril (APP, Homo sapiens, UniProt P05067); amyloid aggregation, inhibitor; 20 µM): 91%
CC[C@H](C)[C@H](NC(=O)[C@@H](NC(=O)[C@H](CCCCN)NC(=O)[C@@H](N)[C@@H](C)O)C(C)C)C(=O)N[C@@H](CC(C)C)C(=O)N[C@@H](Cc1c[nH]cn1)C(N)=O  ThT fluorescence (APP; fibril formation, ThT fluorescence; 10 µM, 42 h, pH 7.4, equimolar to peptide, together with: amyloid-beta 1-42 10 µM; reference: untreated amyloid-beta): 95 ± 14%
CCC1CC2C(C)=CC3C(=O)CCCC3C=CC(C)=CC2C(=O)O1 (stereo not shown)  fibril dissociation (APP amyloid-beta fibrils; thioflavin T, measured: Aβ42 pre-formed fibrils; 500 µM): 22.1%
O=c1cc(/C=C/c2ccc(N3CCCC3)cc2)oc(/C=C/c2ccc(N3CCCC3)cc2)c1  amyloid beta aggregation (Amyloid-beta precursor protein, amyloid-beta aggregates (APP, Homo sapiens, UniProt P05067); TEM and dot blot; 2 µM, together with: amyloid beta 20 µM): no effect
CC[C@H](C)[C@H](NC(=O)[C@H](CCC(N)=O)NC(=O)[C@@H](NC(=O)[C@@H]1CCCN1[C@@H]1CN(C(=O)[C@H](CCCCN)NC(=O)[C@H](CC(N)=O)NC(=O)[C@@H](NC(=O)[C@@H](NC(=O)[C@H](CCC(N)=O)NC(=O)[C@@H](N)C(C)C)[C@@H](C)CC)[C@@H](C)CC)CC[C@H]1NS(=O)(=O)c1ccc(C)cc1)C(C)C)C(=O)N[C@H](C(=O)N[C@@H](Cc1ccc(O)cc1)C(=O)N[C@@H](CCCCN)C(N)=O)C(C)C  ThT fluorescence (APP; fibril formation, ThT fluorescence; 10 µM, 42 h, pH 7.4, equimolar to peptide, together with: amyloid-beta 1-42 10 µM; reference: untreated amyloid-beta): 104 ± 4%

For quick reference, copied from above:
CC(C)C[C@H](NC(=O)CCS[C@H]1O[C@H](CO)[C@@H](O)[C@H](O)[C@H]1O)C(=O)N1CCC[C@H]1C(=O)N[C@@H](Cc1ccccc1)C(=O)N[C@@H](Cc1ccccc1)C(=O)N[C@@H](CC(=O)O)C(=O)N[C@@H](CC(=O)O)C(=O)N[C@@H](C)C(=O)N[C@@H](Cc1c[nH]cn1)C(=O)N[C@@H](CCCCN)C(N)=O  inhibition (Amyloid-beta precursor protein, fibril (APP, Homo sapiens, UniProt P05067); amyloid aggregation, inhibitor; 20 µM): 91%
